Published values of several laboratories.
Numbered parts are unrelated; each lists some results of a single study. Positions count from the first letter of the parent shown.

Series 1 — target: CCNB3, cyclin fold, Cln2 fusion (human); method: yeast growth competition, sequencing; matrix: yeast; setting: weak parent motif; reference: not given; reading: higher = stronger binding; endpoint: normalised enrichment score
Parent: viral docking peptide; PGASRRLFGSSAD; partner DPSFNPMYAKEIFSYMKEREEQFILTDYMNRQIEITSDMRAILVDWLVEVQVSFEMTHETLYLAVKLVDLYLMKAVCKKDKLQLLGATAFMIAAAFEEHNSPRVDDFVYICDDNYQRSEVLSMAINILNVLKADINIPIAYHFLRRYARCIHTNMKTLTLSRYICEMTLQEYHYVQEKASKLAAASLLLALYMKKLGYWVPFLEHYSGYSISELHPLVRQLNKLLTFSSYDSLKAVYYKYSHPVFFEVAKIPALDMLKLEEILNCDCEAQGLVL
PGASRRLFGSAAD [S11A]: 0.321
PGASRRLFASSAD [G9A]: 0.798
PGASRRLFGSSAA [D13A]: 0.184
PGASRALFGSSAD [R6A]: -0.279
PGASRRLLGSSAD [F8L]: 0.464
PGASARLFGSSAD [R5A]: 0.556
PGASKRLFGSSAD [R5K]: -0.0378

Series 2 — observed: binding; method: phage display NGS; molecule type: peptide; tested at: concentration not given; reference: input library; endpoint: enrichment fold change
Target: UDP-N-acetylglucosamine--peptide N-acetylglucosaminyltransferase 110 kDa subunit (OGT, Homo sapiens, UniProt O15294)
Sequence of UniProt O15294 (whole entry, looked up): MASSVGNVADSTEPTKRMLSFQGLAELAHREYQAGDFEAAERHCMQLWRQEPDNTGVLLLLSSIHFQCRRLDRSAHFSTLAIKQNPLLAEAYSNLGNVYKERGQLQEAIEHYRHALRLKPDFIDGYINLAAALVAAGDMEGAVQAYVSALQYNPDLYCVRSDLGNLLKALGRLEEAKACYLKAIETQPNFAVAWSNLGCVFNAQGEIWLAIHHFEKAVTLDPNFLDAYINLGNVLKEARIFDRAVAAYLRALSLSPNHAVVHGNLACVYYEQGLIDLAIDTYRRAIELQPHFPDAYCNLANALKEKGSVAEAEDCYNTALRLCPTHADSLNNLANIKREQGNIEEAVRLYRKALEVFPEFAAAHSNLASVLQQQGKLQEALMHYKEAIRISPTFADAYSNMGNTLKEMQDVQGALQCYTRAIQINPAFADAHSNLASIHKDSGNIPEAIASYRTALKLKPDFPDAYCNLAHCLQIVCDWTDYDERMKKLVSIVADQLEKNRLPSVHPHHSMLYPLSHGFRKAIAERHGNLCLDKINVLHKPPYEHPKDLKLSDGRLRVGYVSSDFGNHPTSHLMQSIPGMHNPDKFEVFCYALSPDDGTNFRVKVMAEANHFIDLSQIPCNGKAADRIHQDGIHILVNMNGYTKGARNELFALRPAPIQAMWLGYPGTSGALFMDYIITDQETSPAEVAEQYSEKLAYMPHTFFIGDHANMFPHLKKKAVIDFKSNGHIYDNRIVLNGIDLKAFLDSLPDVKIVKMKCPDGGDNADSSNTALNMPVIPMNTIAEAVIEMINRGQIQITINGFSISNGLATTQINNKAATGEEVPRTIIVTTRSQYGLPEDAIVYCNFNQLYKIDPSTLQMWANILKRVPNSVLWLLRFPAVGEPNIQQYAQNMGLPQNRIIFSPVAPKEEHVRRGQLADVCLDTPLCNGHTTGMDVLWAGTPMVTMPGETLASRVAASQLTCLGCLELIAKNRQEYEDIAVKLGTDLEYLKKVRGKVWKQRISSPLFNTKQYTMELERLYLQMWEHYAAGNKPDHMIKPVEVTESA
HFYTPHFHYEHARFQ: 2.66
TLSPQHNHEHNQPHH: 7.02
HIHKRDTHWAWYTIG: 3.23
SMNLRHHDHNVHPRV: 6.47
GQLMMTHHPQWRQV: 2.1
HPTWPVEHHHDKIYS: 7.07
GRSDHTPHFEYRAHA: 3.04
QPSRQHHAEHHPWHR: 9.14

Series 3 — target: tungstate, free oxyanion; method: microfluidic competitive inhibition; matrix: in vitro, cell-free expressed; tested at: not given; reading: lower = stronger binding; endpoint: oxyanion analog dissociation constant
Setting: derived from inhibition constants, unchanged parent 2230 nM
Parent: PafA, mature enzyme, eGFP fusion (Elizabethkingia meningoseptica, UniProt Q9KJX5); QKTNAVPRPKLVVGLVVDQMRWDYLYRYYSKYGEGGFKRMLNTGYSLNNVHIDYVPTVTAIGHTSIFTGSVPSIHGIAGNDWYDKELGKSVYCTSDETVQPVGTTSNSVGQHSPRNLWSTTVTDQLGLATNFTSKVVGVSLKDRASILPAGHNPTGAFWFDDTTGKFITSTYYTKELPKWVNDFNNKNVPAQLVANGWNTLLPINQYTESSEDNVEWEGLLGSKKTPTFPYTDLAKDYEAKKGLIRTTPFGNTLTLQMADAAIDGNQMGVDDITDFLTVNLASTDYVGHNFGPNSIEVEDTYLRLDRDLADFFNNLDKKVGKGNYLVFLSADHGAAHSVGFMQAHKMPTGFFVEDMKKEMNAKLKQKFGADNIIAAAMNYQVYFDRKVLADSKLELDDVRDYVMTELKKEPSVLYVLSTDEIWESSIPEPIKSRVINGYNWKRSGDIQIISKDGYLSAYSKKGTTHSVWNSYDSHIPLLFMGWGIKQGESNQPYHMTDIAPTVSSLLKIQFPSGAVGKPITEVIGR
G265A: 2.35 µM
Y26V: 2.09 µM
E421G: 1.97 µM
H63G: 10.6 µM
D162V: 1.55 µM
R400V: 2.41 µM
L126V: 1.81 µM
L305G: 2 µM

Further values, each from its own experiment
CN(C)CCC(c1ccc(Cl)cc1)c1ccccn1 (stereo not drawn)
GFP-positive cells (HEK-293T; pseudovirus infection, FDA-approved drug library counter-screen; VSV pseudotyped with VSV-G; 10 µM, 16 h; reference: vehicle-treated): 99.7%

A few entries again (series 3):
L305G: 2 µM
H63G: 10.6 µM
